{"data": "Results from different studies", "target": "NUAK family SNF1-like kinase 1 (NUAK1, Homo sapiens, UniProt O60285)", "Residues used in one study (O60285 1-661)": "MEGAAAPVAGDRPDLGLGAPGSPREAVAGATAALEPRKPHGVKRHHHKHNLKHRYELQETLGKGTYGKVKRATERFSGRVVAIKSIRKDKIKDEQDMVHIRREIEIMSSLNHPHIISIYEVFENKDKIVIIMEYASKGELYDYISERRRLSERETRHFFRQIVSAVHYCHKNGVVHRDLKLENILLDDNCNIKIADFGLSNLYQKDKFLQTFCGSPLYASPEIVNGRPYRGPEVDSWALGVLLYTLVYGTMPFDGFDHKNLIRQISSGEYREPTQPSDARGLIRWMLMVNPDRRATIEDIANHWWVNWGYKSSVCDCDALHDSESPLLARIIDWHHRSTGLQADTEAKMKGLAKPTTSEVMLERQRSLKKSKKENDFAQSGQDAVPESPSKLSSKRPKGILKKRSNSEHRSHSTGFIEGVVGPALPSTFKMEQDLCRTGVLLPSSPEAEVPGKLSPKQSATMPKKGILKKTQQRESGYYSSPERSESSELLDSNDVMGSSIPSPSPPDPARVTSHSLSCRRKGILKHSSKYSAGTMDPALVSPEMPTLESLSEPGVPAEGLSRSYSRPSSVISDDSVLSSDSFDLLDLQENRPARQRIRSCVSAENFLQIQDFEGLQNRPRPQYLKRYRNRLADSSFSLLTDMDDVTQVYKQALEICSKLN", "note": "Lines come from different studies, so protocols differ. “And” joins repeats or separate records; there may be more than shown."}
{"SMILES": "Cc1cccc(O[C@H]2CCC[C@@H](C(C)CNCc3ccncc3)C2)c1 (relative stereo)", "test": "kinase activity, kinome panel screening", "setting": "10 µM", "measurement": "inhibition", "result": "3%"}
{"SMILES": "C=CC(=O)Nc1cccc(-c2cnc3[nH]cc(C(=O)NC(C)(C)C)c3n2)c1", "test": "kinase activity", "setting": "0.1 µM", "measurement": "inhibition", "result": "91%"}
{"SMILES": "COc1cc(Nc2nc(C)cc(-c3cnn4nc(OC)ccc34)n2)cc(C(F)(F)F)c1", "test": "inhibitor", "setting": "1 µM, ARK5", "how to read": "reference: control", "measurement": "remaining activity", "result": "100%"}
{"SMILES": "CN1CCN(Cc2ccc(-c3ccc(CO[C@H]4CCC[C@@H]4NC(=O)c4cc(-c5cnn(C)c5)cnc4N)cc3)cc2)CC1", "test": "enzyme activity, inhibitor", "setting": "0.1 µM", "measurement": "inhibition", "result": "-17%"}
{"SMILES": "COCC12C(=O)NC3C4(C(OC)CC1O)C1CC5(O)C(OC)C(O)C(OC(C)=O)(C1C5OC(=O)c1ccccc1)C3(O)C(OC)C24 (stereo not shown)", "test": "kinase activity, inhibitor, ProQinase kinase profiling", "setting": "25 µM", "how to read": "reference: control", "measurement": "remaining activity", "result": "93% and 85%"}
{"SMILES": "COc1ccc(NC(=O)Nc2ccc3c(c2)C(=O)N(C(C)CO)CC(C)C(CN(C)Cc2ccc4c(c2)OCO4)O3)cc1 (stereo not shown)", "test": "kinase activity, KinaseProfiler", "setting": "0.03 µM, species human", "how to read": "reference: control", "measurement": "remaining activity", "result": "108%"}
{"SMILES": "O=C(Cc1ccc(OCc2ccccc2)cc1)NC1(C(=O)O)CCN(C(=O)c2ccc(-c3cccc(Cl)c3)cc2)CC1", "test": "enzyme activity, inhibitor", "setting": "10 µM", "measurement": "activity vs control", "result": "113%"}
{"SMILES": "Cc1cnc2nc1Nc1cccc(c1)COC/C=C/COCc1cc(ccc1OCCN1CCOCC1)N2", "test": "cell-free assay", "setting": "0.1 µM", "measurement": "remaining signal", "result": "61%"}
{"SMILES": "CNC(=O)C[C@H](Cc1ccc(C#N)cc1)NC(=O)c1cc(-c2ccc(CN[C@H](C)c3ccc(C)cc3)o2)ccc1Cl", "test": "enzyme activity, inhibitor", "setting": "1 µM", "measurement": "activity vs control", "result": "87%"}
{"SMILES": "COc1c(OCCCN2CCOCC2)ccc2c1N=C(NC(=O)c1cnc(N)nc1)N1CCN=C21", "test": "kinase activity, inhibitor", "setting": "1 µM", "how to read": "reference: untreated control", "measurement": "remaining activity", "result": "96%"}
{"SMILES": "N[C@H]1CC[C@H](Nc2nccc(-c3cccnc3Oc3ccc(NC(=O)NC4CC4)c4ccccc34)n2)CC1", "test": "kinobead competition pulldown", "system": "HEK293/HCT116 lysate mixture", "setting": "10 µM, 1 h, 4 °C", "how to read": "lower = stronger competition", "measurement": "log2 LFQ intensity", "result": "21 and 20.9 and 20 and 21.1"}
{"SMILES": "C=CC(=O)N1CCCC(n2c(=O)c3ncccc3n(Cc3ccc(Oc4ccccc4)cc3)c2=O)C1 (stereo not shown)", "test": "cell-free assay, competition with immobilised ligand", "setting": "1 µM", "measurement": "remaining binding", "result": "100%"}
{"SMILES": "NC(=O)[C@@H](O)C[C@H]1CCc2sc3ncnc(O[C@H]4CC[C@H](N5CCOCC5)CC4)c3c21", "test": "enzyme activity, inhibitor", "setting": "10 µM", "measurement": "inhibition", "result": "21%"}
{"SMILES": "Cc1ccc(-c2c(/C=C(\\C#N)C(=O)NC(C)C)n(CCCO)c3ncnc(N)c23)cc1", "test": "cell-free assay, competition with immobilised ligand", "setting": "1 µM", "measurement": "remaining binding", "result": "100%"}
{"SMILES": "CCn1cc(C(=O)O)c(=O)c2c(N)c(F)c(NC3CCCCC3)cc21", "test": "kinase activity", "setting": "0.1 µM, together with: ATP at Km", "measurement": "inhibition", "result": "-4.3%"}
{"SMILES": "O=C=[N][Ru-4]123([n]4c5ccc(O)cc5c5c6c(c7cc(F)c[n+]1c7c54)C(=O)NC6=O)[S+]1CC[S+]2CC[S+]3CC1 (stereo not shown)", "test": "enzyme activity", "setting": "100 nM, human enzyme, together with: 10 µM ATP", "how to read": "reference: untreated", "measurement": "remaining activity", "result": "88%"}
{"note": "Excerpt of the above:"}
{"SMILES": "CN1CCN(Cc2ccc(-c3ccc(CO[C@H]4CCC[C@@H]4NC(=O)c4cc(-c5cnn(C)c5)cnc4N)cc3)cc2)CC1", "test": "enzyme activity, inhibitor", "setting": "0.1 µM", "measurement": "inhibition", "result": "-17%"}
{"SMILES": "CCn1cc(C(=O)O)c(=O)c2c(N)c(F)c(NC3CCCCC3)cc21", "test": "kinase activity", "setting": "0.1 µM, together with: ATP at Km", "measurement": "inhibition", "result": "-4.3%"}
